{"data": "Measurements from different studies", "note": "Each line is one published result; not all experiments were run side by side.", "sequence of UniProt Q86Z02 (whole entry, looked up)": "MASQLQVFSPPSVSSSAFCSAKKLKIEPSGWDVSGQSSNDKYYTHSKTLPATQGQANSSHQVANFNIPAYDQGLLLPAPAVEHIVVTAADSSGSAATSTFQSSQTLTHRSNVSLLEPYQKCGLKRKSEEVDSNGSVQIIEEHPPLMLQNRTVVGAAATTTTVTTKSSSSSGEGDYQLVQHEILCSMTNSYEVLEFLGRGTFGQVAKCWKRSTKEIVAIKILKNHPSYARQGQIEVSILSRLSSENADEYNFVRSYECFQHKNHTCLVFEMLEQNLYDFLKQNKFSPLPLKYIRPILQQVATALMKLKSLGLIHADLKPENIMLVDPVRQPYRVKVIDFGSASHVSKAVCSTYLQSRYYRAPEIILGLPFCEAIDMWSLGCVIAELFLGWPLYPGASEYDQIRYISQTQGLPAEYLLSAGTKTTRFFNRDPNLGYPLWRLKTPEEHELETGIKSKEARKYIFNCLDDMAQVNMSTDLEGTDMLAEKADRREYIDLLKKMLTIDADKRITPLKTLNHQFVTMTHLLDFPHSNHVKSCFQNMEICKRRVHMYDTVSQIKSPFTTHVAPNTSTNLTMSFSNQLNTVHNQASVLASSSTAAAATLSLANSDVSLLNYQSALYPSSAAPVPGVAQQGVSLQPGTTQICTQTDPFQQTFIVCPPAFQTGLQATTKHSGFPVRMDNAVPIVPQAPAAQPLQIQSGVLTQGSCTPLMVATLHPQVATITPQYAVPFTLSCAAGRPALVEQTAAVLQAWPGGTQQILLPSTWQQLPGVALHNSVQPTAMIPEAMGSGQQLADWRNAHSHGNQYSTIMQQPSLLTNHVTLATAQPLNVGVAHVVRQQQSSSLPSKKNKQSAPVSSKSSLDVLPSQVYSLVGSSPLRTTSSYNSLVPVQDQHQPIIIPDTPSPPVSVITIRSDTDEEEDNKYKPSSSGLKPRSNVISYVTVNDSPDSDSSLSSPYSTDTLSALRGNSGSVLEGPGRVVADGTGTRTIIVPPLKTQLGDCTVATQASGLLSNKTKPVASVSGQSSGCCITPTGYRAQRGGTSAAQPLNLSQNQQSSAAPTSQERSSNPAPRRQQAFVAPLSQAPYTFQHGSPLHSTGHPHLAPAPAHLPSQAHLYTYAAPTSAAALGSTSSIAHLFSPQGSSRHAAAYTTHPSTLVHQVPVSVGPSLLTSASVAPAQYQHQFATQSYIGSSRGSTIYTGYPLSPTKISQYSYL", "sequence of UniProt P22607 (whole entry, unmodified, looked up)": "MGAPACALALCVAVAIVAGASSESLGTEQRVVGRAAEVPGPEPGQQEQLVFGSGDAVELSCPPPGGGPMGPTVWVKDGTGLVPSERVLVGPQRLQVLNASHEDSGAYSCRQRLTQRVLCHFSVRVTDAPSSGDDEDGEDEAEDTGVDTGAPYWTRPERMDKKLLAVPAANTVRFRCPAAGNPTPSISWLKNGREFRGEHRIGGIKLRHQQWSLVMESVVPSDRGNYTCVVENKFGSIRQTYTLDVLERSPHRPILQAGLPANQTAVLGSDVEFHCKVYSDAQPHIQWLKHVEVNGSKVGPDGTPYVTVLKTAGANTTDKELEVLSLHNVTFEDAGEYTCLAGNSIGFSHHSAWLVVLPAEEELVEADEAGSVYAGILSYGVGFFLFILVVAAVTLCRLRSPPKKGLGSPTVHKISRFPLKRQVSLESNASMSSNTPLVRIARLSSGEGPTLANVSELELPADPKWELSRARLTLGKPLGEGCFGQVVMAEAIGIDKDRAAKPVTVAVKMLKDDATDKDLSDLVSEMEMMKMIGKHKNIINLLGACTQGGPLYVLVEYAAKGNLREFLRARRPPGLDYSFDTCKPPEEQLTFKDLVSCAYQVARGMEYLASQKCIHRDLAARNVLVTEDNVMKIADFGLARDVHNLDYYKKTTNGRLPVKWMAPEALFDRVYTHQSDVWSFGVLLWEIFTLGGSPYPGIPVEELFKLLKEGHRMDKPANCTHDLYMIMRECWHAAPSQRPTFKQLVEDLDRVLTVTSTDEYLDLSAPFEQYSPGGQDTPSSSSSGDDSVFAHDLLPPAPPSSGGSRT", "sequence of UniProt P31751 (whole entry, looked up)": "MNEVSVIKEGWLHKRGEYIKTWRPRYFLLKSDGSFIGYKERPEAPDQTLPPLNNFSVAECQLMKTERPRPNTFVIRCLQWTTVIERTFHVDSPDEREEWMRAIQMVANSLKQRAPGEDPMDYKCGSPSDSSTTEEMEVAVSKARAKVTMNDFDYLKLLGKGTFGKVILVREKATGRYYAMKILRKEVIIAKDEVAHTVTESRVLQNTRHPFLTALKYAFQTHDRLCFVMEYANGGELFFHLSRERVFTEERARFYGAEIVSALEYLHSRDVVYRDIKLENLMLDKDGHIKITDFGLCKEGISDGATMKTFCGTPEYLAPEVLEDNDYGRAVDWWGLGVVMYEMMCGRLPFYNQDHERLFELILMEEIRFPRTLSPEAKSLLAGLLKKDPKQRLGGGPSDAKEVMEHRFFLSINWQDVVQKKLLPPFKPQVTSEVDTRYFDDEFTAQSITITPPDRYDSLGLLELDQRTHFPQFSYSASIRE"}
{"SMILES": "CC(=O)Nc1ccc(Oc2nnc(-c3ccc(Cl)cc3)c3ccccc23)cc1", "target or system": "MCF7", "test": "cell growth or viability, MTT", "conditions": "10 µM", "quantity": "cell death", "value": "94.2%"}
{"SMILES": "CNc1ncc2c(/C=C/C(=O)N3CCC(CCO)CC3)nn(CC3CCCC3)c2n1", "target or system": "FLO-1", "test": "cell growth or viability, resazurin", "conditions": "5 days", "quantity": "EC50", "value": "24.1 µM"}
{"SMILES": "C[C@@H]1CC[C@@H]([C@](C)(O)CNCc2cccc(F)c2)[C@H](OCc2ccccc2)C1", "target or system": "HeLa", "test": "cell growth or viability, MTT", "conditions": "30 µM, 72 h", "quantity": "inhibition", "value": "98.8%"}
{"SMILES": "Cc1[nH]c(C)c(-c2ccc(Oc3ccc(Cl)cc3)cc2)c(=O)c1Br", "target or system": "HEK293", "test": "cell growth or viability", "quantity": "IC50", "value": "> 10 µM"}
{"SMILES": "CCNC(=S)NNC(=O)COc1ccc2c(C)c(CC)c(=O)oc2c1C", "target or system": "PC-3", "test": "cell growth or viability, MTT", "conditions": "500 µg/mL", "quantity": "viability", "value": "8.02%"}
{"SMILES": "CC(=NNC(=O)c1ccc(N)cc1)c1ccc(Nc2nnc(-c3ccc(Cl)cc3)c3ccccc23)cc1", "target or system": "MCF7", "test": "cell growth or viability, MTT", "conditions": "0.312 µM", "quantity": "cell death", "value": "13%"}
{"SMILES": "CCN(O)N=Nc1ccc(S(=O)(=O)Nc2onc(C)c2C)cc1", "test": "ABTS scavenging", "conditions": "240 µg/mL", "quantity": "inhibition", "value": "50.7%"}
{"SMILES": "O=C(Nc1ccc(Oc2nnc(-c3ccc(Cl)cc3)c3ccccc23)cc1)c1ccccc1", "target or system": "MCF7", "test": "cell growth or viability, MTT", "conditions": "78 nM", "quantity": "cell death", "value": "13.5%"}
{"SMILES": "Cc1c(Cc2ccccc2)c(=O)oc2c(C)c(OCC(=O)NN=Cc3ccc(Cl)cc3)ccc12", "target or system": "PC-3", "test": "cell growth or viability, MTT", "conditions": "62.5 µg/mL", "quantity": "viability", "value": "48%"}
{"SMILES": "OCc1ccc(-c2nn(Cc3cccnc3)c3cccnc23)o1", "target or system": "RBE", "test": "cell growth or viability, ATP luminescence", "conditions": "46 µM, 72 h", "quantity": "inhibition", "value": "80%"}
{"SMILES": "Cc1cc(NS(=O)(=O)c2ccc(N=NN(O)c3ccccc3)cc2)no1", "test": "ABTS scavenging", "conditions": "180 µg/mL", "quantity": "inhibition", "value": "71.2%"}
{"SMILES": "CCN(Cc1cccc(F)c1F)c1ccc(CO)c(Cl)c1", "target or system": "RBE", "test": "cell growth or viability, ATP luminescence", "conditions": "46 µM, 72 h", "quantity": "inhibition", "value": "56%"}
{"SMILES": "CC(C)N(Cc1cnc2nc(N)nc(N)c2n1)c1ccc(Cl)c(Cl)c1", "target or system": "HEK293", "test": "cell growth or viability", "quantity": "IC50", "value": "> 10 µM"}
{"SMILES": "CCCOc1ccc2c(C)c(CC)c(=O)oc2c1C", "target or system": "PC-3", "test": "cell growth or viability, MTT", "conditions": "62.5 µg/mL", "quantity": "viability", "value": "96.7%"}
{"SMILES": "CC(=NNC(=S)Nc1ccccc1)c1ccc(Nc2nnc(-c3ccc(Cl)cc3)c3ccccc23)cc1", "target or system": "MCF7", "test": "cell growth or viability, MTT", "conditions": "5 µM", "quantity": "cell death", "value": "92.8%"}
{"SMILES": "Nc1ccn([C@@H]2O[C@H](CO)[C@@H](O)C2(F)F)c(=O)n1", "target or system": "MB002", "test": "cell growth or viability", "conditions": "7 days", "quantity": "IC50", "value": "0.0265 µM"}
{"SMILES": "CCCCC(=O)Nc1ccc(-c2ccc3ncn(CCC)c(=O)c3c2)cn1", "target or system": "Fibroblast growth factor receptor 3 (FGFR3, Homo sapiens, UniProt P22607, G697C)", "test": "binding, competition with immobilised ligand", "conditions": "0.5 µM", "quantity": "remaining binding", "value": "88%"}
{"SMILES": "CC(=NNC(=O)c1ccccc1Br)c1ccc(Nc2nnc(-c3ccc(Cl)cc3)c3ccccc23)cc1", "target or system": "MCF7", "test": "cell growth or viability, MTT", "conditions": "5 µM, 24 h", "quantity": "viability", "value": "6.2%"}
{"SMILES": "Cc1cc([C@@H](C)Nc2ccccc2C(=O)O)c2nc(N3CCC(F)(F)CC3)c(C#N)c(=O)n2c1", "target or system": "RAC-beta serine/threonine-protein kinase (AKT2, Homo sapiens, UniProt P31751)", "test": "binding, competition with immobilised ligand", "conditions": "10 µM", "quantity": "remaining binding", "value": "100%"}
{"SMILES": "C[C@@H]1CC[C@@H]([C@](C)(O)CNCc2cccc3ccccc23)[C@H](OCc2ccccc2)C1", "target or system": "A2780", "test": "cell growth or viability, MTT", "conditions": "10 µM, 72 h", "quantity": "inhibition", "value": "28.3%"}
{"SMILES": "C=CC(=O)N1CCC(COCC(=O)N2CCN(c3nc(-c4cnc(N)nc4C(F)F)nc(N4CCOC[C@@H]4C)n3)CC2)CC1", "target or system": "Serine/threonine-protein kinase pim-3 (PIM3, Homo sapiens, UniProt Q86V86)", "test": "binding, competition with immobilised ligand", "conditions": "1 µM", "quantity": "remaining binding", "value": "100%"}
{"SMILES": "O=C(Nc1ccc(Oc2nnc(-c3ccc(Cl)cc3)c3ccccc23)cc1)c1cccc([N+](=O)[O-])c1", "target or system": "MCF7", "test": "cell growth or viability, MTT", "conditions": "1.25 µM, 24 h", "quantity": "viability", "value": "3.63%"}
{"SMILES": "CNc1ncc2c(/C=C/C(=O)N3CCC(C)CC3)nn(CC3CCCC3)c2n1", "target or system": "FLO-1", "test": "cell growth or viability, resazurin", "conditions": "5 days", "quantity": "EC50", "value": "21.2 µM"}
{"SMILES": "Cc1c(Cc2ccccc2)c(=O)oc2c(C)c(OCC(=O)NN=Cc3ccc([N+](=O)[O-])cc3)ccc12", "target or system": "PC-3", "test": "cell growth or viability, MTT", "conditions": "250 µg/mL", "quantity": "viability", "value": "8.2%"}
{"SMILES": "CNC(=O)c1cc(Oc2ccc(NC(=O)Nc3ccc(Cl)c(C(F)(F)F)c3)cc2)ccn1", "target or system": "WM 266-4", "test": "cell growth or viability, MTT", "conditions": "25 µM, 48 h", "quantity": "viability", "value": "43.8%"}
{"SMILES": "Cc1[nH]c(C)c(-c2ccc(Oc3ccc(OC(F)(F)F)cc3)cc2)c(=O)c1Br", "target or system": "HEK293", "test": "cell growth or viability", "quantity": "IC50", "value": "> 10 µM"}
{"SMILES": "Cc1cn(-c2cc(NC(=O)c3ccc(C)c(Nc4nccc(-c5cccnc5)n4)c3)cc(C(F)(F)F)c2)cn1", "target or system": "HD-MB03", "test": "cell growth or viability", "conditions": "7 days", "quantity": "IC50", "value": "> 10 µM"}
{"SMILES": "COc1cc(-c2cncc3c2CN(C)Cc2cc(N4CCNCC4)ccc2-3)cc(OC)c1OC", "target or system": "Homeodomain-interacting protein kinase 1 (HIPK1, Homo sapiens, UniProt Q86Z02)", "test": "enzyme activity, inhibitor", "conditions": "1 µM", "quantity": "remaining activity", "value": "107%"}
{"SMILES": "Cc1[nH]c(C)c(-c2cccc(-c3ccc(OC(F)(F)F)cc3)c2)c(=O)c1Br", "target or system": "HEK293", "test": "cell growth or viability", "quantity": "IC50", "value": "> 10 µM"}
{"SMILES": "CC(=NNC(N)=S)c1ccc(Nc2nnc(-c3ccc(Cl)cc3)c3ccccc23)cc1", "target or system": "MCF7", "test": "cell growth or viability, MTT", "conditions": "78 nM, 24 h", "quantity": "viability", "value": "90.3%"}
{"SMILES": "CN(Cc1ccc(C(C)(C)C)cc1)Cc1cccc2ccccc12", "target or system": "Trichophyton rubrum", "test": "microbial growth, disc diffusion", "test system": "ATCC28188", "conditions": "0.008 µg/mL, 6 days", "quantity": "inhibition zone", "value": "≥ 55 mm"}
{"note": "A few entries again:"}
{"SMILES": "CC(=O)Nc1ccc(Oc2nnc(-c3ccc(Cl)cc3)c3ccccc23)cc1", "target or system": "MCF7", "test": "cell growth or viability, MTT", "conditions": "10 µM", "quantity": "cell death", "value": "94.2%"}
{"SMILES": "CC(=NNC(=O)c1ccc(N)cc1)c1ccc(Nc2nnc(-c3ccc(Cl)cc3)c3ccccc23)cc1", "target or system": "MCF7", "test": "cell growth or viability, MTT", "conditions": "0.312 µM", "quantity": "cell death", "value": "13%"}
{"SMILES": "CC(=NNC(N)=S)c1ccc(Nc2nnc(-c3ccc(Cl)cc3)c3ccccc23)cc1", "target or system": "MCF7", "test": "cell growth or viability, MTT", "conditions": "78 nM, 24 h", "quantity": "viability", "value": "90.3%"}
{"SMILES": "C[C@@H]1CC[C@@H]([C@](C)(O)CNCc2cccc(F)c2)[C@H](OCc2ccccc2)C1", "target or system": "HeLa", "test": "cell growth or viability, MTT", "conditions": "30 µM, 72 h", "quantity": "inhibition", "value": "98.8%"}
